# Results gathered from unrelated publications.
# B1: human HSPA4; sequence looked up; chain MSVVGIDLGFQSCYVAVARAGGIETIANEYSDRCTPACISFGPKNRSIGAAAKSQVISNAKNTVQGFKRFHGRAFSDPFVEAEKSNLAYDIVQLPTGLTGIKVTYMEEERNFTTEQVTAMLLSKLKETAESVLKKPVVDCVVSVPCFYTDAERRSVMDATQIAGLNCLRLMNETTAVALAYGIYKQDLPALEEKPRNVVFVDMGHSAYQVSVCAFNRGKLKVLATAFDTTLGGRKFDEVLVNHFCEEFGKKYKLDIKSKIRALLRLSQECEKLKKLMSANASDLPLSIECFMNDVDVSGTMNRGKFLEMCNDLLARVEPPLRSVLEQTKLKKEDIYAVEIVGGATRIPAVKEKISKFFGKELSTTLNADEAVTRGCALQCAILSPAFKVREFSITDVVPYPISLRWNSPAEEGSSDCEVFSKNHAAPFSKVLTFYRKEPFTLEAYYSSPQDLPYPDPAIAQFSVQKVTPQSDGSSSKVKVKVRVNVHGIFSVSSASLVEVHKSEENEEPMETDQNAKEEEKMQVDQEEPHVEEQQQQTPAENKAESEEMETSQAGSKDKKMDQPPQAKKAKVKTSTVDLPIENQLLWQIDREMLNLYIENEGKMIMQDKLEKERNDAKNAVEEYVYEMRDKLSGEYEKFVSEDDRNSFTLKLEDTENWLYEDGEDQPKQVYVDKLAELKNLGQPIKIRFQESEERPKLFEELGKQIQQYMKIISSFKNKEDQYDHLDAADMTKVEKSTNEAMEWMNNKLNLQNKQSLTMDPVVKSKEIEAKIKELTSTCSPIISKPKPKVEPPKEEQKNAEQNGPVDGQGDNPGPQAAEQGTDTAVPSDSDKKLPEMDID
Substance,tested on,test,system,conditions,how to read,quantity,value
colistin,Pseudomonas aeruginosa,,PA1072 PER-producing isolate,,,MIC,2 mg/L
Tropomyosin alpha-1 chain (human),PP6C (human),"co-immunoprecipitation, IP-MS",CYB5R4 knockout cells,concentration not given,relative to: CYB5R4 knockout over parental,log2 fold change,-0.04
polymyxin B sulfate,Pseudomonas aeruginosa,broth microdilution,PAO1,,,MIC,0.125 mg/L
colistin,Pseudomonas aeruginosa,broth microdilution,ATCC 9027,18 h,,MIC,1 µM
polymyxin B acetate,Pseudomonas aeruginosa,broth microdilution,PAO1,,,MIC,0.125 mg/L
gentamicin sulfate,Pseudomonas aeruginosa,,"ATCC BAA-2108, resistant","18 h, 37 °C, dark",,MIC,8 µM
B1 (human HSPA4),PP6C (human),"co-immunoprecipitation, IP-MS",CYB5R4 knockout cells,concentration not given,relative to: CYB5R4 knockout over parental,log2 fold change,-0.31
colistin,Pseudomonas aeruginosa,broth microdilution,clinical isolate RKI-No_481/15,,,MIC,1 mg/L
polymyxin B,Pseudomonas aeruginosa,broth microdilution,"PA14, Mueller-Hinton broth","24 h, 37 °C",,MIC,0.5 mg/L
colistin,Pseudomonas aeruginosa,,ATCC 27853,,,MIC,0.5 mg/L
benzalkonium chloride,Pseudomonas aeruginosa,,PAO1,,,MIC,125 µM

# A few entries again:
Substance,tested on,test,system,conditions,how to read,quantity,value
colistin,Pseudomonas aeruginosa,broth microdilution,clinical isolate RKI-No_481/15,,,MIC,1 mg/L
